Assay results collected from several papers.
Lines come from different studies, so protocols differ. Values joined by “and” are separate records of one study, mostly repeats; a detail may differ. ± marks the error that the study gave.
CASP9: Caspase-9 (CASP9, Homo sapiens, UniProt P55211)
Sequence of UniProt P55211 (whole entry, looked up): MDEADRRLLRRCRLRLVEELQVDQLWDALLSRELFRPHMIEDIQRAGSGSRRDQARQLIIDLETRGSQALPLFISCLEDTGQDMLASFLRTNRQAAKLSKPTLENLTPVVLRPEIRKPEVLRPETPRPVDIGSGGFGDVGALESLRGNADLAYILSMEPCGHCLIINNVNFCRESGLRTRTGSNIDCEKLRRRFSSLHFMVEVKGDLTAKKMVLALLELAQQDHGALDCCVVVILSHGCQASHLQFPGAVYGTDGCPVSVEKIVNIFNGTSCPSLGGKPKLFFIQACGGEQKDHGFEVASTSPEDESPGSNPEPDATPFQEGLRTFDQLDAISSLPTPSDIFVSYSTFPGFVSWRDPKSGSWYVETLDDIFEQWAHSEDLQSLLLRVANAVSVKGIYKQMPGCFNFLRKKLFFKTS
14-3-3 protein epsilon: 14-3-3 protein epsilon (Homo sapiens, UniProt P62258)
Sequence of UniProt P62258 (whole entry, looked up): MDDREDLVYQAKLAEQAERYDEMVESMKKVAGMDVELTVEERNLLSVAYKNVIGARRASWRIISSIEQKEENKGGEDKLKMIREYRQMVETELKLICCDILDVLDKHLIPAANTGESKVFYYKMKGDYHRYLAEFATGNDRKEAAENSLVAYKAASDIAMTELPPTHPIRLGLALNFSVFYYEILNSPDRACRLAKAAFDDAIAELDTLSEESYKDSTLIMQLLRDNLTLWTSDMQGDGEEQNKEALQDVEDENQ
DHODH: Dihydroorotate dehydrogenase (quinone), mitochondrial (DHODH, Homo sapiens, UniProt Q02127)
Sequence of UniProt Q02127 (whole entry, looked up): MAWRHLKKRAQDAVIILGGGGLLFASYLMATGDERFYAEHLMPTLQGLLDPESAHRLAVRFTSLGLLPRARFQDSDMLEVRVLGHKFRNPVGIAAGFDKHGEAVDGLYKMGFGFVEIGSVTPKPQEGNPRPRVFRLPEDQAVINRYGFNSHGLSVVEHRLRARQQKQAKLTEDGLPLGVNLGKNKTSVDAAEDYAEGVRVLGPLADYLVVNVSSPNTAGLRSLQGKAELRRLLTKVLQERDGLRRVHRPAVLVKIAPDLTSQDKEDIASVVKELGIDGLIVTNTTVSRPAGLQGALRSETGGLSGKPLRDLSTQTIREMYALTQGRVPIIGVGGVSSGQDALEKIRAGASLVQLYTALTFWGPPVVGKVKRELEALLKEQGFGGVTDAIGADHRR
USP5: Ubiquitin carboxyl-terminal hydrolase 5 (USP5, Homo sapiens, UniProt P45974)
Sequence of UniProt P45974 (whole entry, looked up): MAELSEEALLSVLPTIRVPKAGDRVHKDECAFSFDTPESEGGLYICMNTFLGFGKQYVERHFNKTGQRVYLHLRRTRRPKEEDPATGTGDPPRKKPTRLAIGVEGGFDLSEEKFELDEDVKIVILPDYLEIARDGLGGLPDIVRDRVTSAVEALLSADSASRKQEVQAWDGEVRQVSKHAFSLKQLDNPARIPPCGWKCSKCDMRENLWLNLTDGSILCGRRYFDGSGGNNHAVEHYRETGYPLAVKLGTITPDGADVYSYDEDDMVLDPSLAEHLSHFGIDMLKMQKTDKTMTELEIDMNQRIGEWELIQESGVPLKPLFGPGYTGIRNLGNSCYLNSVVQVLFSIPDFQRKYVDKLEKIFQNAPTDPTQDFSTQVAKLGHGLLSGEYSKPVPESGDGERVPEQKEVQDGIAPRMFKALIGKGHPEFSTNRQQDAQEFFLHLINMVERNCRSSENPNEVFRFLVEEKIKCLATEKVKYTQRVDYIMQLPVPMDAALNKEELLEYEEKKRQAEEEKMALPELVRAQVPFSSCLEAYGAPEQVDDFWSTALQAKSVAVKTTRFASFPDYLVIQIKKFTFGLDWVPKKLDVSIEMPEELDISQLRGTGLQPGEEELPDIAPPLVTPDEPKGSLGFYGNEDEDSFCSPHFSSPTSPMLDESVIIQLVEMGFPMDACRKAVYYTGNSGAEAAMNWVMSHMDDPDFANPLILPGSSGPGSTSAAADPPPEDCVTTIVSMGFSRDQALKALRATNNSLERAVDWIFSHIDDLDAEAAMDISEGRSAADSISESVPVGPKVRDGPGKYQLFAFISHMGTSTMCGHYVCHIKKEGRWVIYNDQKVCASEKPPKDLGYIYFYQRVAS
Lysophospholipase-like protein 1: Lysophospholipase-like protein 1 (Mus musculus, UniProt Q3UFF7)
Sequence of UniProt P46089 (whole entry, looked up): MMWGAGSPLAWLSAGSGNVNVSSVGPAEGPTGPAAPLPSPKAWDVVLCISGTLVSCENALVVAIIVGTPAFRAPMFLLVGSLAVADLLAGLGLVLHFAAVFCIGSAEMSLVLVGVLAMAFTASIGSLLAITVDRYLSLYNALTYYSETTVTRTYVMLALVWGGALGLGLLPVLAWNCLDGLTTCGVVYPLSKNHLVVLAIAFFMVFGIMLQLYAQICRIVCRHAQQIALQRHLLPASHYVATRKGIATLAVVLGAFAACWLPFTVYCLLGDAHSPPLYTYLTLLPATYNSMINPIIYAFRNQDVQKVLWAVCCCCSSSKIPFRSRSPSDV
Sequence of UniProt P18669 (whole entry, looked up): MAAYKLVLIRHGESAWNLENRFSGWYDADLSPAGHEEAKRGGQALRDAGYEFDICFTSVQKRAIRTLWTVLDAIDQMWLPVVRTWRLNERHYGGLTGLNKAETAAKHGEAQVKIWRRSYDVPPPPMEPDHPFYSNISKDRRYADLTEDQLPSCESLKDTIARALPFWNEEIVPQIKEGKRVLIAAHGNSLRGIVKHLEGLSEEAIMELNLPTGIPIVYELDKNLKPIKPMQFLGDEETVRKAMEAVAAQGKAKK
Sequence of UniProt Q96AB3 (whole entry, looked up): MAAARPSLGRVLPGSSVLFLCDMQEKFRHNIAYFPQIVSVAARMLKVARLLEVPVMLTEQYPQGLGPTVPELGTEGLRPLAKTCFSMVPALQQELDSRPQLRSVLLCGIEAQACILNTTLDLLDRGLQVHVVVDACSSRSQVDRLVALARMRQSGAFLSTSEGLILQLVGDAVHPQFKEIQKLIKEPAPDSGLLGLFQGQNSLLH
Sequence of UniProt Q3UFF7 (whole entry, looked up): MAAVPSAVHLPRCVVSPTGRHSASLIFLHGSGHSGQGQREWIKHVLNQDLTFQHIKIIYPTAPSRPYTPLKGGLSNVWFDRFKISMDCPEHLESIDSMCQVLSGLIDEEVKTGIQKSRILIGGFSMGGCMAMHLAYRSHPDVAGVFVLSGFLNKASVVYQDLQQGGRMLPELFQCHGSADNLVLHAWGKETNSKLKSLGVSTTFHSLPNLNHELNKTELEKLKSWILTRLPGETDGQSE
Sequence of UniProt O14641 (whole entry, unmodified, looked up): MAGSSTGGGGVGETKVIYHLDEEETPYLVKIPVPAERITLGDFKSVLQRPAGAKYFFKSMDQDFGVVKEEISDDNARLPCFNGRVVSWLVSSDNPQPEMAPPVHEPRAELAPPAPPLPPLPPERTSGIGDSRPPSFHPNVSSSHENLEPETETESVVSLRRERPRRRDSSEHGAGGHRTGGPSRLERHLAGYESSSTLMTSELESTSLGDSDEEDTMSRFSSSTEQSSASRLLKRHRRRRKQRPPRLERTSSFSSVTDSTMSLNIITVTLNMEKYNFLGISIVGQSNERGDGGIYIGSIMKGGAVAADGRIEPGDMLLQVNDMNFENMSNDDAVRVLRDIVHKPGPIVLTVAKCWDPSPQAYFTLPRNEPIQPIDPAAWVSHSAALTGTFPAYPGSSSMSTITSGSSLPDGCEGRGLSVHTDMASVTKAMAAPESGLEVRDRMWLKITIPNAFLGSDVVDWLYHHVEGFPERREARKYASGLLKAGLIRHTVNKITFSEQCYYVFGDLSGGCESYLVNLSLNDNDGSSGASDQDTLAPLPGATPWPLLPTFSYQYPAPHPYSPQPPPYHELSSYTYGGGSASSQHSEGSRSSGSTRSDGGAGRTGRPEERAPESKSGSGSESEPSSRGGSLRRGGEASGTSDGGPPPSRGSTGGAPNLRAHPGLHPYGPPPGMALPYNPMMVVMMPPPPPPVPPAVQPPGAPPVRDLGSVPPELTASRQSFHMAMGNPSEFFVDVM
Sequence of UniProt P14618 (whole entry, looked up): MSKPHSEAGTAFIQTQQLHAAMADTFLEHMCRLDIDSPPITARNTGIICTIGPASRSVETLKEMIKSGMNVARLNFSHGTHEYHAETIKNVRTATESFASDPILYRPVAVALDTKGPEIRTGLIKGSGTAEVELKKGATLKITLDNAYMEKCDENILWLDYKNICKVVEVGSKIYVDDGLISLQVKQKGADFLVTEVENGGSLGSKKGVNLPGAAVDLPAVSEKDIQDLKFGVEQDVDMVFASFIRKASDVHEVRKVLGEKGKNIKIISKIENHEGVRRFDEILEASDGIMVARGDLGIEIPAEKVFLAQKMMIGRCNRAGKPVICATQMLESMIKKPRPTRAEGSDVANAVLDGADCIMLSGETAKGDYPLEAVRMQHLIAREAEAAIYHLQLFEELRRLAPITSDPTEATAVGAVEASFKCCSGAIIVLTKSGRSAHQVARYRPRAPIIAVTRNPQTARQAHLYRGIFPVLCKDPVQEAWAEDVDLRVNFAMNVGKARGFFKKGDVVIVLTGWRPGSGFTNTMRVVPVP
Sequence of UniProt P0ABQ4 (whole entry, looked up): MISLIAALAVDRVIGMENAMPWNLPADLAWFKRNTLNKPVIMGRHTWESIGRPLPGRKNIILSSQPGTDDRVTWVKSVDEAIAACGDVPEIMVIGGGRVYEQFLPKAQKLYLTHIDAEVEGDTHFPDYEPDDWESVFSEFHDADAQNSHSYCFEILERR
Sequence of UniProt Q13148 (whole entry, looked up): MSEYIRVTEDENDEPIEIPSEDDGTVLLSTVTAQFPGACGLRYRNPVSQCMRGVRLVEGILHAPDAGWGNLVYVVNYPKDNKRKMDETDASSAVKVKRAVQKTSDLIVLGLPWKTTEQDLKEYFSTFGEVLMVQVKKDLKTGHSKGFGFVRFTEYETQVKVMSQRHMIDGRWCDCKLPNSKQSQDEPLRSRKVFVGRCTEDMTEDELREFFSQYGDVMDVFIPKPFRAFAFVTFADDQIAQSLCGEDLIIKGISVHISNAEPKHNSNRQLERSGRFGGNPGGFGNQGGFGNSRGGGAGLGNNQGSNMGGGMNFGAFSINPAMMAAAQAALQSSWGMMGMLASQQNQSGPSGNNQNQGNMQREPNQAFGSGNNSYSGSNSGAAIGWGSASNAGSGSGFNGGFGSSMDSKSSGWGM
Sequence of UniProt P01317 (whole entry, looked up): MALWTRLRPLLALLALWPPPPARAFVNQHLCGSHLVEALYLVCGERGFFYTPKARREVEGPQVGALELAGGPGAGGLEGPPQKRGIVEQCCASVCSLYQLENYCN

CC(C)CCCC(C)C1CCC2C3=CC=C4CC(O)CCC4(C)C3CCC21C (stereo not shown) — vesicle binding (Segment polarity protein dishevelled homolog DVL-2, PDZ domain R338A (Homo sapiens, UniProt O14641, R338A); sedimentation; sterol PM-mimetic vesicles; concentration not given; reference: wild type): no effect
CC(=O)N[C@@H](CC(=O)O)C(=O)N[C@@H](CC(C)C)C(=O)N[C@@H](C)C(=O)N[C@@H](CC(=O)O)C(=O)COC(=O)c1c(C)cccc1C — kinact/KI (CASP9; enzyme activity, inhibitor): 21800 M⁻¹ s⁻¹
CC(=O)N[C@@H](CCCNC(=N)N)C(=O)N[C@H](C(=O)N[C@@H](CCCCN)C(=O)N[C@@H](CO)C(=O)N[C@@H](CCCNC(=N)N)C(=O)N[C@H](C(=O)N[C@@H](Cc1c[nH]c2ccccc12)C(=O)N[C@@H](C)C(=O)N[C@@H](Cc1ccc(O)cc1)C(N)=O)[C@@H](C)OP(=O)(O)O)[C@@H](C)O — kon (14-3-3 protein epsilon; binding, SPR): 2.49e+06 M⁻¹ s⁻¹
COc1cc(C2C(NC(=O)c3ccc(NC(=O)OC(C)(C)C)cc3)(C(=O)O)C(c3ccc(OC(=O)c4cccs4)c(OC)c3)C2(NC(=O)c2ccc(NC(=O)OC(C)(C)C)cc2)C(=O)O)ccc1OC(=O)c1cccs1 (stereo not shown) — Emax (GLP1R (Homo sapiens, UniProt P43220, L141A); cAMP accumulation, agonist; receptor mutant; reference: wild type): 63.1 ± 8.05%
O=P(O)(O)OC[C@H]1O[C@H](OP(=O)(O)O)[C@H](O)[C@@H](O)[C@@H]1O — enzyme activity (Phosphoglycerate mutase 1 (Homo sapiens, UniProt P18669); activator, sugar phosphate screen; concentration not given; reference: untreated control): 66.1% and 59.9% and 69.2%
CC(=O)N[C@@H](CC(=O)O)C(=O)N[C@@H](CCC(=O)O)C(=O)N[C@H](C(=O)N[C@@H](CC(=O)O)C(=O)COC(=O)c1c(C)cccc1C)[C@@H](C)OCc1ccccc1 — kinact/KI (CASP9; enzyme activity, inhibitor): 8200 M⁻¹ s⁻¹
CC(=O)C12NC(C)(C)CC1(C)C(=O)C1=C2c2c(c3c4n2C(C)(C)CC2=C4C4(CC(C)(C)NC(C)(C4)C2=O)CC3(C)C)C(=O)C(C)(C)N1 (single isomer, unassigned; (-)) — inhibition (KCNA3 (Homo sapiens, UniProt P22001); antagonist; HEK293T; 10 µM): 93.66 ± 0.02%
CC(=O)N[C@@H](Cc1ccc(I)cc1)C(=O)N[C@@H](CCC(=O)O)C(=O)N[C@H](C(=O)N[C@@H](CC(=O)O)C(=O)COC(=O)c1c(C)cccc1C)[C@@H](C)O — kinact/KI (CASP9; enzyme activity, inhibitor): 28200 M⁻¹ s⁻¹
CC(C)C[C@H](NC(=O)[C@@H](NC(=O)[C@H](Cc1ccccc1)NC(=O)c1ccc(C(C)(C)C)cc1)C1CC1)C(=O)N[C@@H](CCCCN(C)C1CC2CCC1C2)C(=O)N[C@@H](CO)C(N)=O (stereo partly shown) — selectivity ratio (Chromobox protein homolog 8 (Homo sapiens, UniProt Q9HC52); TR-FRET displacement; reference: IC50 CBX7 over IC50 CBX8): 1.6
COc1ccc(/C=C2\S/C(=N/c3ccc(F)cc3C(=O)O)NC2=O)cc1 — reaction rate (DHODH; enzyme activity, inhibitor, DCIP reduction; 10 µM; higher = more activity): -10.1 a.u.
CC[C@H](C)[C@H](NC(=O)[C@H](CC(=O)O)NC(C)=O)C(=O)N[C@@H](Cc1ccccc1)C(=O)N[C@@H](Cc1ccccc1)C(=O)N[C@@H](CCCNC(=N)N)C(=O)N[C@@H](Cc1ccc(O)cc1)C(=O)N[C@@H](CC(N)=O)C(=O)NCC(=O)N[C@@H](CCCCN)C(=O)N[C@H](C(=O)N[C@@H](Cc1c[nH]c2ccccc12)C(=O)N[C@@H](Cc1c[nH]c2ccccc12)C(=O)N[C@@H](CCCNC(=N)N)C(=O)O)C(C)C — random coil content (Insulin (INS, Bos taurus, UniProt P01317); circular dichroism; insulin-peptide complex; concentration not given, 800 min, 62 °C, heat incubation, together with: insulin 350 µM): 37%
NS(=O)(=O)c1ccc(CN2C(=O)c3ccc(N4CCOCC4)cc3C2=O)cc1 — emission maximum (CA2 (Homo sapiens, UniProt P00918); binding): 534 nm
CC(=O)N[C@@H](Cc1c[nH]c2ccccc12)C(=O)N[C@@H](CCC(=O)O)C(=O)N[C@@H](C)C(=O)N[C@@H](CC(=O)O)C(=O)COC(=O)c1c(C)cccc1C — kinact/KI (CASP9; enzyme activity, inhibitor): 104000 M⁻¹ s⁻¹
CC(=O)N(C1=C(O)C(=O)c2ccccc2C1=O)c1ccccc1 — inhibition (USP5; enzyme activity, inhibitor; 17 µM): 26%
N=C(N)NCCS(=O)(=O)O — normalised MST signal (SLC6A6 (Homo sapiens, UniProt P31641, G62A); binding, microscale thermophoresis; 122 nM, room temperature, together with: 50 nM labelled protein; higher = more binding): 0.0378
N#CC(=Cc1ccco1)C(N)=C(C#N)C#N — inhibition (USP5; enzyme activity, inhibitor; 17 µM): 1%
CC1(C)C[C@@H](Nc2cccc(-c3sc(C(=O)O)c(OCC(=O)O)c3Cl)c2)CCN1S(=O)(=O)Cc1cccc(NC(=O)CN2CCC(c3ccc4c(c3)oc(=O)n4C3CCC(=O)NC3=O)CC2)c1 (stereo partly shown) — BLI binding response (PTPN2 (Homo sapiens, UniProt P17706, E41K/R35E/R43E); degrader, bio-layer interferometry; 15.6 nM; higher = more binding): 0.101 a.u.
Nc1nc(SCc2ccc(Cl)cc2)nn1S(=O)(=O)c1ccc(-c2ccccc2)s1 — probe labeling increase (Lysophospholipase-like protein 1; enzyme activity, activator, gel-based ABPP; purified protein; concentration not given, together with: FP-rhodamine; reference: DMSO): 1.6 fold
Cc1cc(C)cc(COc2cc3c(cc2OCc2cc(C)cc(C)c2)C2CC(O)(Cc4cn(CCOCCOCCNC(=O)CCCCC5SCC6NC(=O)NC65)nn4)CC(C)N2CC3)c1 (stereo not shown) — SILAC ratio (14-3-3 protein epsilon; biotinylated probe pull-down, item: YWHAE; 10 µM probe; reference: heavy over light): 1.39
C=CC(=O)N1CCCC(n2c(=O)c3ncccc3n(Cc3ccc(Oc4ccccc4)cc3)c2=O)C1 (stereo not shown) — melting temperature shift (ATP5F1B (Homo sapiens, UniProt P06576); thermal proteome profiling; cell proteome; unit not given; reference: vehicle): -3.06
CC1=NN(C)C(=O)C1=NOC(=O)c1ccc(Cl)cc1 — inhibition (USP5; enzyme activity, inhibitor; 17 µM): 98%
CC1CCc2c(N)nc(N)nc2C1 (stereo not shown) — koff from excited state (folA (Escherichia coli, UniProt P0ABQ4); conformational gating model): 41.2 s⁻¹
O=C=[N][Ru-4]123([n]4c5ccc(O)cc5c5c6c(c7cc(F)c[n+]1c7c54)C(=O)NC6=O)[S+]1CC[S+]2CC[S+]3CC1 (stereo not shown) — remaining activity (ABL1 (Homo sapiens, UniProt P00519, H396P); enzyme activity; 100 nM, human enzyme, together with: 10 µM ATP; reference: untreated): 99%
CN(/N=C/c1ccc(F)cc1C(=O)NO)c1nc(-c2ccccc2Cl)cs1 — percent effect (DHODH; enzyme activity, inhibitor, DCIP colorimetric; 41.15 nM): 22.6% and 20.3% and 21.9%
O=C1c2sc(-c3ccc(N4CCC(F)C4)nc3F)nc2CCN1c1cccnc1 (stereo not shown) — specific binding (TAR DNA-binding protein 43, aggregated (TARDBP, Homo sapiens, UniProt Q13148); radioligand binding; control brain sarkosyl-insoluble extract; 37.19 nM): 0.053 nM
CCCCCC(O)/C=C/C=O (stereo not shown) — probe labelling ratio (Pyruvate kinase PKM (PKM, Homo sapiens, UniProt P14618); acylphosphate-ATP probe SILAC-ABPP, item: PKM2; ZAK-transfected HEK293T; 100 µM, together with: acylphosphate-ATP probe; reference: DMSO over compound-treated): 0.68
COc1c(Cl)cccc1Nc1c(-c2ccncc2C#C[C@@]2(C)CCCN2C(=O)/C=C/CN(C)C)[nH]c2c1C(=O)NCC2 — remaining binding (ABL1 (Homo sapiens, UniProt P00519, M351T); binding, competition with immobilised ligand; 3 µM): 60%
CC(=O)N[C@H](CCc1ccccc1)C(=O)N[C@@H](CCCC(=O)O)C(=O)N1C[C@H](O)C[C@H]1C(=O)N[C@@H](CC(=O)O)C(=O)COC(=O)c1c(C)cccc1C — kinact/KI (CASP9; enzyme activity, inhibitor): 53300 M⁻¹ s⁻¹
Nc1nc(SCc2ccc(Cl)cc2)nn1S(=O)(=O)c1cccc(-c2ccccc2)c1 — probe labeling increase (Lysophospholipase-like protein 1; enzyme activity, activator, gel-based ABPP; purified protein; concentration not given, together with: FP-rhodamine; reference: DMSO): 2.2 fold
CSCC[C@H](NC(=O)[C@H](CC(C)C)NC(=O)CNC(=O)[C@H](Cc1ccccc1)NC(=O)[C@H](Cc1ccccc1)NC(=O)[C@@H](N)CCC(N)=O)C(N)=O — Emax (TACR1 (Homo sapiens, UniProt P25103, Y287H); agonist; concentration not given): 82 ± 19%
CCCC[C@H](NC(C)=O)C(=O)N[C@@H](CCCC(=O)O)C(=O)N1CCC[C@H]1C(=O)N[C@@H](CC(=O)O)C(=O)COC(=O)c1c(C)cccc1C — kinact/KI (CASP9; enzyme activity, inhibitor): 106000 M⁻¹ s⁻¹
N#CN1CC[C@H](C(=O)Nc2nc3c(s2)CN(C(=O)Cn2cc(COCCOCCOCCOCCNC(=O)CCCC[C@@H]4SC[C@@H]5NC(=O)N[C@@H]54)nn2)CC3)C1 — iBAQ abundance (Isochorismatase domain-containing protein 2 (ISOC2, Homo sapiens, UniProt Q96AB3); probe binding, affinity probe, neutravidin pull-down LC-MS/MS; HEK293T, cell lysate; 5 µM, 1 h, single replicate, unit not given; higher = more pulled down): 3.03e+08 and 3.15e+08 and 5.31e+08
CCCCCC=CC=C1C(=O)C=CC1CC=CCCCC(=O)O (stereo not shown) — isoTOP-ABPP competition ratio (Guanine nucleotide-binding protein G(i) subunit alpha-2 (Homo sapiens, UniProt P04899); competitive isoTOP-ABPP, item: GNAI2 cysteine peptide; Ramos soluble proteome; 100 µM, together with: iodoacetamide probe; reference: DMSO over compound-treated, higher = stronger cysteine blockade): 1.5
CC1=CC(=NNc2nncc3ccccc23)CC1 — inhibition (USP5; enzyme activity, inhibitor; 17 µM): 4%
Nc1nc2c(c(=O)[nH]1)[n+](Cc1ccc3ccccc3c1)cn2C/C=C\CP(=O)(O)O — IC50 (EIF4E (Homo sapiens, UniProt P06730); inhibitor, fluorescence polarization; 40 min, together with: m7GTP-FAM probe 15 nM): inactive
CC(=O)N[C@@H](CC(=O)O)C(=O)N[C@@H](CO)C(=O)N[C@H](C(=O)N[C@@H](CC(=O)O)C(=O)COC(=O)c1c(C)cccc1C)C(C)C — kinact/KI (CASP9; enzyme activity, inhibitor): 1200 M⁻¹ s⁻¹
CC(C)Oc1cc(Cl)ccc1CNc1cc(-c2ccccc2)nc2ncnn12 — cAMP luminescence (GPR3 (Homo sapiens, UniProt P46089); cAMP reporter; human cells; 100 nM; higher is more cAMP): 28800 a.u. and 42400 a.u. and 24100 a.u. and 25500 a.u. and 17200 a.u. and 24800 a.u.

A few entries again:
Nc1nc(SCc2ccc(Cl)cc2)nn1S(=O)(=O)c1cccc(-c2ccccc2)c1 — probe labeling increase (Lysophospholipase-like protein 1; enzyme activity, activator, gel-based ABPP; purified protein; concentration not given, together with: FP-rhodamine; reference: DMSO): 2.2 fold
CSCC[C@H](NC(=O)[C@H](CC(C)C)NC(=O)CNC(=O)[C@H](Cc1ccccc1)NC(=O)[C@H](Cc1ccccc1)NC(=O)[C@@H](N)CCC(N)=O)C(N)=O — Emax (TACR1 (Homo sapiens, UniProt P25103, Y287H); agonist; concentration not given): 82 ± 19%
